{"data": "Experimental data collected from several papers", "note": "Every numbered part comes from another study and shows a few of its results, in no order. “And” joins repeats or separate records; there may be more than shown.", "sequence of UniProt P49840 (whole entry, looked up)": "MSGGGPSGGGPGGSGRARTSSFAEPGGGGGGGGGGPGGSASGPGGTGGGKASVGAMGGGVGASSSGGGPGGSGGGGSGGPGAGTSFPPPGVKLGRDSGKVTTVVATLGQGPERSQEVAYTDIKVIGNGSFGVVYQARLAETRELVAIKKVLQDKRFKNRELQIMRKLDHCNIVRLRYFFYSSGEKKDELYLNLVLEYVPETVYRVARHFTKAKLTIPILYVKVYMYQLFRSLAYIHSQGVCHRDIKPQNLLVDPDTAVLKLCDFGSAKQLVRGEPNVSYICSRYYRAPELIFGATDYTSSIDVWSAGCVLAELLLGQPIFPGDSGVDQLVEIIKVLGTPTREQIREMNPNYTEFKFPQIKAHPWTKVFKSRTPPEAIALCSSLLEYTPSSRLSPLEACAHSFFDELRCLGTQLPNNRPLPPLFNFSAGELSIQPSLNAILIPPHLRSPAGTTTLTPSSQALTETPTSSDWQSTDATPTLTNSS", "sequence of UniProt O14920 (whole entry, looked up)": "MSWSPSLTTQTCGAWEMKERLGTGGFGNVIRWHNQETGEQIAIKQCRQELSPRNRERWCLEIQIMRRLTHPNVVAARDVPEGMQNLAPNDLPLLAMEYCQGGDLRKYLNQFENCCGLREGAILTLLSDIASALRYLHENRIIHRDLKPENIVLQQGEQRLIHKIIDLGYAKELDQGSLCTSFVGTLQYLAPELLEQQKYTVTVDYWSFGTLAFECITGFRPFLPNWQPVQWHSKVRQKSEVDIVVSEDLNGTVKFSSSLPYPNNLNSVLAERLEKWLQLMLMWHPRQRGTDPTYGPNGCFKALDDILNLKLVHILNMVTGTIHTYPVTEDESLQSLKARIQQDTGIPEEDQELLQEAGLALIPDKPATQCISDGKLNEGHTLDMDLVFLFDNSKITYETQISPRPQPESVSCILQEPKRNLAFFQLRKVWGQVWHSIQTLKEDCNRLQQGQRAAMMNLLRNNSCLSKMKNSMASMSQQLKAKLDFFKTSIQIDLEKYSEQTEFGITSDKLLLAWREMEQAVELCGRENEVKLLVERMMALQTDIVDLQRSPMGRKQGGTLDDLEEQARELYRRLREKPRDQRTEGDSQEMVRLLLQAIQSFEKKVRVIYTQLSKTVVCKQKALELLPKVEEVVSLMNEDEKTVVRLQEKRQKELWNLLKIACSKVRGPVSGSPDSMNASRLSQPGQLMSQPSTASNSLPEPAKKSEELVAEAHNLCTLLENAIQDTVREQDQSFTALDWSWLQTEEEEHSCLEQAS", "sequence of UniProt P45985 (whole entry, looked up)": "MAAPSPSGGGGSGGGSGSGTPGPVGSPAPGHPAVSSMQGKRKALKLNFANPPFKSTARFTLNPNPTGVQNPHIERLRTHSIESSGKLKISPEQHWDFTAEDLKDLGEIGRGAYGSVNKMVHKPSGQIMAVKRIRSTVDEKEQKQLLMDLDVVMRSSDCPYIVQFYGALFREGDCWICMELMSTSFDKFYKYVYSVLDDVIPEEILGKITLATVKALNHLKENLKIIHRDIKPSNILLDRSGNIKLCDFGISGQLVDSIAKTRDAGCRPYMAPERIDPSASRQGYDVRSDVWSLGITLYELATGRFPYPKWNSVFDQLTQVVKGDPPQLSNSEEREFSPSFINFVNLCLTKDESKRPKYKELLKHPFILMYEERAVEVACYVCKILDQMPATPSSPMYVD", "sequence of UniProt P42680 (whole entry, looked up)": "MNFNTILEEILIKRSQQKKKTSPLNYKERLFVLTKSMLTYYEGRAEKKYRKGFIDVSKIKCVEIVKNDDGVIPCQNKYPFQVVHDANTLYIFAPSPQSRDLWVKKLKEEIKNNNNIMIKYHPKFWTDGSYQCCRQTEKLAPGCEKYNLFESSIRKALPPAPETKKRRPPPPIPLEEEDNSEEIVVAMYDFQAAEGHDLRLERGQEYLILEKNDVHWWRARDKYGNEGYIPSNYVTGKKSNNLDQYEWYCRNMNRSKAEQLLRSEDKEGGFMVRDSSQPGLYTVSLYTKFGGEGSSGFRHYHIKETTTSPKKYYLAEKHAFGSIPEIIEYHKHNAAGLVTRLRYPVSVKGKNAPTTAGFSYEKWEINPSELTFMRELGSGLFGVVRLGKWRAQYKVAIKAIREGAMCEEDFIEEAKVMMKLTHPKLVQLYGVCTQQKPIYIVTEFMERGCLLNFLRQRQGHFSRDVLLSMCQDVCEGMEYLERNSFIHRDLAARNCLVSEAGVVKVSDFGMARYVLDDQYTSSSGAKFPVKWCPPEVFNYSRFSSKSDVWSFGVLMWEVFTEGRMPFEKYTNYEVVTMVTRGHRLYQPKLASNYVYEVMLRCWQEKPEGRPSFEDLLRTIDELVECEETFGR", "sequence of UniProt Q96Q40 (whole entry, looked up)": "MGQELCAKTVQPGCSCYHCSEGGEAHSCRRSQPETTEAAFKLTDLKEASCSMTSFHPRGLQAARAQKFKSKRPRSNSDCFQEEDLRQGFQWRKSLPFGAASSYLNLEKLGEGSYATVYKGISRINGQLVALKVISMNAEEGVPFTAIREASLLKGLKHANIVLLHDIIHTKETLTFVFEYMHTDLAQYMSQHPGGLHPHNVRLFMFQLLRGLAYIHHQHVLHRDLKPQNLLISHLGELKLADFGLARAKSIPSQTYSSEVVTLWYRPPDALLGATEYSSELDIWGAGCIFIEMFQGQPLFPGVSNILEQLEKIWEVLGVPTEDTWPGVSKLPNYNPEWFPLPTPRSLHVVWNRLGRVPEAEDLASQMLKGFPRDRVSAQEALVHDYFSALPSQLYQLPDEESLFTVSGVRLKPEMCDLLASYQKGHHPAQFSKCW", "sequence of UniProt O75716 (whole entry, looked up)": "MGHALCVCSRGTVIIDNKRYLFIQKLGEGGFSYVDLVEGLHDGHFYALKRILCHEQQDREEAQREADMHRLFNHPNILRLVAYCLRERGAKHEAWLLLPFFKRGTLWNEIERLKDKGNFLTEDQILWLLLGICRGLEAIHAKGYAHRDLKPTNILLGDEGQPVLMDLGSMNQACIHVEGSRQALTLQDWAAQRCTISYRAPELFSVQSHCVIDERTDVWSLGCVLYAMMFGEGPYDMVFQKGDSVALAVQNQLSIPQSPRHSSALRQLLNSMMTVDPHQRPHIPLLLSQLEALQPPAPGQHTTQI", "sequence of UniProt Q9H2X6 (whole entry, looked up)": "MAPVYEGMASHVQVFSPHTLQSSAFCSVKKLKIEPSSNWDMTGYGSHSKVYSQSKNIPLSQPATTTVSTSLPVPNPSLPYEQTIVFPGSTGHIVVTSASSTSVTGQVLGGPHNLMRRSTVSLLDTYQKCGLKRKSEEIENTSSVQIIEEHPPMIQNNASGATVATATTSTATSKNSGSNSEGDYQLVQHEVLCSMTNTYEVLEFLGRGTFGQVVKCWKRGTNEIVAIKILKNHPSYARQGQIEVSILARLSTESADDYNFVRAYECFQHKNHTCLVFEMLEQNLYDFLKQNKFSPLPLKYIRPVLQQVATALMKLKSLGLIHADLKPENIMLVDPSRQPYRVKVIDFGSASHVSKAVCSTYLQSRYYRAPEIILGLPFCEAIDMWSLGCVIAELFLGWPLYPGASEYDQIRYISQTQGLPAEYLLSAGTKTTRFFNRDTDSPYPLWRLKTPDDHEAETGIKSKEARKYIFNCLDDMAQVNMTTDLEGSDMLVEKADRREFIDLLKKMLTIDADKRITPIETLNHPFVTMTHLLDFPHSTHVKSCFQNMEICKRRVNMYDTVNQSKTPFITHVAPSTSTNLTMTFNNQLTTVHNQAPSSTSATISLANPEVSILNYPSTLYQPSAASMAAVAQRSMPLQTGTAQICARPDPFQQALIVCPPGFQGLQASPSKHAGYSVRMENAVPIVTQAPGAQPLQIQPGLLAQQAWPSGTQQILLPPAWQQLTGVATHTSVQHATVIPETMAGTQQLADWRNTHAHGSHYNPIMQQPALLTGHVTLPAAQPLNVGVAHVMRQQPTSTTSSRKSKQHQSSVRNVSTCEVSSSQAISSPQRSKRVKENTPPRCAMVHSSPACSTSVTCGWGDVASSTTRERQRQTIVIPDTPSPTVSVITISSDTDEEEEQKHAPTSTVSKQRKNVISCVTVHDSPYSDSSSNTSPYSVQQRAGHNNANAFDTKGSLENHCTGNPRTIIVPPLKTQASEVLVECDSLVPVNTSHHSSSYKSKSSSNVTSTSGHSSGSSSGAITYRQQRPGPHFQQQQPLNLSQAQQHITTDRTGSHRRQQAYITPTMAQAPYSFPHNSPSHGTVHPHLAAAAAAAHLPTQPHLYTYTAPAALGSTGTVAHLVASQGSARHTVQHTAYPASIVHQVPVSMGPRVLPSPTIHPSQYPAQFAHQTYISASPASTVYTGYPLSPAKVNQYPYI", "sequence of UniProt P49761 (whole entry, looked up)": "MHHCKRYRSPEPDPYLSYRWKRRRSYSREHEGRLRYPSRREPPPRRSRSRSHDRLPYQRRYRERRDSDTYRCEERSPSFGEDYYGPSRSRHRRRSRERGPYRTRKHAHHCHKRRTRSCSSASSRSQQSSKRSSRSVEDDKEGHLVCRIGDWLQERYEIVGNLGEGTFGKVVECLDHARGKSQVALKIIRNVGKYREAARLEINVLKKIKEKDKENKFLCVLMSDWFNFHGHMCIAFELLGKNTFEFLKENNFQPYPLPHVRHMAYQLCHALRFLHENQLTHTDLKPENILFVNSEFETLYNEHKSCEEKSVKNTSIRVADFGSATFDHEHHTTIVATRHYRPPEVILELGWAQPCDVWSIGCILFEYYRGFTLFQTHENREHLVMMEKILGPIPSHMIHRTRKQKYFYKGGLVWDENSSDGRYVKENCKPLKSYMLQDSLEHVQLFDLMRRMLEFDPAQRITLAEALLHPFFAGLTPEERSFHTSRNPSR"}
{"data": "Set 1", "SMILES": "C[C@@H](c1cccc(C#N)c1)n1cc(Cl)cc(C(N)=O)c1=N", "method": "competition with immobilised ligand", "concentration": "1 µM"}
{"target": "PIP5K1C (Homo sapiens, UniProt O60331)", "observed": "cell-free assay", "remaining binding [%]": 100}
{"target": "CDK15 (Homo sapiens, UniProt Q96Q40)", "observed": "cell-free assay", "remaining binding [%]": 89}
{"target": "PIK3CA (Homo sapiens, UniProt P42336)", "observed": "cell-free assay", "remaining binding [%]": 100}
{"target": "SGK1 (Homo sapiens, UniProt O00141)", "observed": "cell-free assay", "remaining binding [%]": 100}
{"target": "CDK5 (Homo sapiens, UniProt Q00535)", "observed": "cell-free assay", "remaining binding [%]": 92}
{"target": "MAPK7 (Homo sapiens, UniProt Q13164)", "observed": "cell-free assay", "remaining binding [%]": 88}
{"target": "MAPK13 (Homo sapiens, UniProt O15264)", "observed": "cell-free assay", "remaining binding [%]": 98}
{"target": "CLK2 (Homo sapiens, UniProt P49760)", "observed": "cell-free assay", "remaining binding [%]": 100}
{"target": "TEC (Homo sapiens, UniProt P42680)", "observed": "binding", "remaining binding [%]": 88}
{"target": "STK32A (Homo sapiens, UniProt Q8WU08)", "observed": "binding", "remaining binding [%]": 100}
{"target": "HIPK2 (Homo sapiens, UniProt Q9H2X6)", "observed": "cell-free assay", "remaining binding [%]": 100}
{"target": "NEK2 (Homo sapiens, UniProt P51955)", "observed": "cell-free assay", "remaining binding [%]": 100}
{"target": "PIP5K1A (Homo sapiens, UniProt Q99755)", "observed": "cell-free assay", "remaining binding [%]": 100}
{"target": "IKBKB (Homo sapiens, UniProt O14920)", "observed": "cell-free assay", "remaining binding [%]": 100}
{"target": "Tyrosine-protein kinase ABL1, non-phosphorylated (ABL1, Homo sapiens, UniProt P00519)", "observed": "cell-free assay", "remaining binding [%]": 82}
{"target": "STK38 (Homo sapiens, UniProt Q15208)", "observed": "cell-free assay", "remaining binding [%]": 84}
{"target": "CSF1R (Homo sapiens, UniProt P07333)", "observed": "cell-free assay", "remaining binding [%]": 100}
{"data": "Set 2", "Structure (SMILES)": "COc1ccc2[nH]c3c4[nH]c5ccc(OC)cc5c4c4c(c3c2c1)C(=O)NC4=O", "concentration": "1 µM"}
{"target": "NEK1 (Homo sapiens, UniProt Q96PY6)", "method": "competitive binding panel", "relative to": "vehicle", "remaining binding": "100%"}
{"target": "RIPK4 (Homo sapiens, UniProt P57078)", "method": "competitive binding panel", "relative to": "vehicle", "remaining binding": "83%"}
{"target": "PRKG1 (Homo sapiens, UniProt Q13976)", "method": "competitive binding panel", "relative to": "vehicle", "remaining binding": "74%"}
{"target": "CDPK1 (Plasmodium falciparum, UniProt P62344)", "method": "competitive binding, scanMAX", "setting": "Plasmodium falciparum CDPK1, 1000 nM", "remaining binding": "29%"}
{"target": "COQ8A (Homo sapiens, UniProt Q8NI60)", "method": "competitive binding panel", "item": "ADCK3", "relative to": "vehicle", "remaining binding": "100%"}
{"target": "INSRR (Homo sapiens, UniProt P14616)", "method": "competitive binding panel", "relative to": "vehicle", "remaining binding": "95%"}
{"target": "GSK3A (Homo sapiens, UniProt P49840)", "method": "competitive binding panel", "relative to": "vehicle", "remaining binding": "100%"}
{"target": "CILK1 (Homo sapiens, UniProt Q9UPZ9)", "method": "competitive binding scan", "remaining binding": "89%"}
{"target": "PIM3 (Homo sapiens, UniProt Q86V86)", "method": "competitive binding panel", "relative to": "vehicle", "remaining binding": "2.6%"}
{"target": "CLK3 (Homo sapiens, UniProt P49761)", "method": "competitive binding panel", "relative to": "vehicle", "remaining binding": "79%"}
{"target": "STK16 (Homo sapiens, UniProt O75716)", "method": "competitive binding panel", "relative to": "vehicle", "remaining binding": "74%"}
{"data": "Set 3", "Structure (SMILES)": "CC#CC(=O)N1CCC[C@H]1c1nc(-c2ccc(C(=O)Nc3ccccn3)cc2)c2c(N)nccn12", "observed": "enzyme activity", "action": "inhibitor", "concentration": "1 µM"}
{"target": "MAP2K4 (Homo sapiens, UniProt P45985)", "inhibition [%]": 0}
{"target": "MAP4K4 (Homo sapiens, UniProt O95819)", "inhibition [%]": 0}
{"target": "FGFR2 (Homo sapiens, UniProt P21802)", "inhibition [%]": 2}
{"target": "EGFR (Homo sapiens, UniProt P00533)", "inhibition [%]": 22}
{"target": "Myosin-IIIa (MYO3A, Homo sapiens, UniProt Q8NEV4)", "inhibition [%]": 12}
{"target": "STK24 (Homo sapiens, UniProt Q9Y6E0)", "inhibition [%]": 0}
{"target": "HUNK (Homo sapiens, UniProt P57058)", "inhibition [%]": 0}
{"target": "RIPK1 (Homo sapiens, UniProt Q13546)", "inhibition [%]": 18}
{"target": "LYN (Homo sapiens, UniProt P07948)", "inhibition [%]": 11}
{"target": "SNRK (Homo sapiens, UniProt Q9NRH2)", "inhibition [%]": 0}
{"data": "Set 4", "SMILES": "CN1CCC[C@H]1COc1nc2c(c(N3CCN(S(C)(=O)=O)[C@@H](CC#N)C3)n1)CCN(c1cccc3cccc(Cl)c13)C2", "cell line": "HEK293", "method": "CellTiter-Glo", "relative to": "vehicle"}
{"concentration": "10 µM", "viability": "19.1% and 17.7% and 21%"}
{"concentration": "5 µM", "viability": "26.3% and 29.3% and 27.6%"}
{"concentration": "2.5 µM", "viability": "52.2% and 40.4% and 48.8%"}
{"concentration": "40 µM", "viability": "0.11% and 0.59% and 0.06%"}
{"concentration": "156 nM", "viability": "102% and 103%"}
{"note": "A few entries again (set 3):"}
{"target": "EGFR (Homo sapiens, UniProt P00533)", "inhibition [%]": 22}
{"target": "Myosin-IIIa (MYO3A, Homo sapiens, UniProt Q8NEV4)", "inhibition [%]": 12}
{"target": "STK24 (Homo sapiens, UniProt Q9Y6E0)", "inhibition [%]": 0}
{"target": "HUNK (Homo sapiens, UniProt P57058)", "inhibition [%]": 0}
{"target": "RIPK1 (Homo sapiens, UniProt Q13546)", "inhibition [%]": 18}
